Experimental data from different studies.
Compare with care: the assays were run in different laboratories. ± marks the error that the study gave.

By UniProt entry, the sequences of proteins in these tests, tags left out. Residues count along the entry.
UniProt Q05941, 23-502 limits assumed: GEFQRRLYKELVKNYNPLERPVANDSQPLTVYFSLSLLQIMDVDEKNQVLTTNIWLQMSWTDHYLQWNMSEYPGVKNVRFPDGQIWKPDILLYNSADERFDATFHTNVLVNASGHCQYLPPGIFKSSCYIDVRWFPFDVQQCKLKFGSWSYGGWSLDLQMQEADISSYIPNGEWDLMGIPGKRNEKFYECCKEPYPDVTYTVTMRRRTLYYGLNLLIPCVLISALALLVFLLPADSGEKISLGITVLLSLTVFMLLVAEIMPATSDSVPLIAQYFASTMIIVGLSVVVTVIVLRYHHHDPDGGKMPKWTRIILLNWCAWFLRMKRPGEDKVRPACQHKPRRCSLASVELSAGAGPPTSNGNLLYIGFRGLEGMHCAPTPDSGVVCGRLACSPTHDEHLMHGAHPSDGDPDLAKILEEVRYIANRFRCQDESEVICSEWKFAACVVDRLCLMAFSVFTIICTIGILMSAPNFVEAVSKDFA
UniProt P42574, whole entry, looked up: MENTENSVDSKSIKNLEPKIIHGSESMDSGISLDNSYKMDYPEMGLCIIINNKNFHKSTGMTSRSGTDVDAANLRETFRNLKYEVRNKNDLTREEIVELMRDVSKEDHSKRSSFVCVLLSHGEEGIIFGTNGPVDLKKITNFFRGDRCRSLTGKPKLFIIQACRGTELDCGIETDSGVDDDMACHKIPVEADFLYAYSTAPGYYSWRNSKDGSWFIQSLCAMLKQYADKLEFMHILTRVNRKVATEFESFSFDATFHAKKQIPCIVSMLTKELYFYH
UniProt P11509, whole entry: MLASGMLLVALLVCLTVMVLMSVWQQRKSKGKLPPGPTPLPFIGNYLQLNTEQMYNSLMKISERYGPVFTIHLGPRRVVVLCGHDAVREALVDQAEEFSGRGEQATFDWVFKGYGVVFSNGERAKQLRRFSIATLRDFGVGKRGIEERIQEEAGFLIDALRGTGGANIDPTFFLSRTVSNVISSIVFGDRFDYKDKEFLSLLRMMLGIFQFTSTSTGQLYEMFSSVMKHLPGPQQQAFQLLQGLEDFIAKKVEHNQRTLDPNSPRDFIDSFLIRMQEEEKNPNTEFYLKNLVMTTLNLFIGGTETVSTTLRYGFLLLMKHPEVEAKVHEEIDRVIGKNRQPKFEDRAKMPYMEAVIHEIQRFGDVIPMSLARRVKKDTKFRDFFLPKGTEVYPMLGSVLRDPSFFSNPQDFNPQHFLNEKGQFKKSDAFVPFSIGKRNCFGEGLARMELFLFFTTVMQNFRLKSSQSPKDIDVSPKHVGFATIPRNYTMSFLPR
UniProt P55210, whole entry, looked up: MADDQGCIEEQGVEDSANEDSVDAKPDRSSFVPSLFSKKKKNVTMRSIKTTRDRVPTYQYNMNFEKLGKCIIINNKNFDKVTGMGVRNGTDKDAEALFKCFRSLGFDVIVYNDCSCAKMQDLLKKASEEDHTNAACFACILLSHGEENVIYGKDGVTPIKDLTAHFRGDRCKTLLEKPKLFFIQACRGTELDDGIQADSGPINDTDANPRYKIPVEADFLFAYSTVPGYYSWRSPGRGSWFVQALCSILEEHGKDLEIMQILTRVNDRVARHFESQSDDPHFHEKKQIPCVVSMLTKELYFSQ

SMILES	target or system	assay	test system	setting	how to read	endpoint	result
C[C@@H](O)[C@@H]1NC(=O)[C@H]2NC(=O)[C@@H](NC(=O)CN)CSSC[C@H](NC(=O)[C@H](CCCNC(=N)N)NC(=O)[C@@H]3CCCN3C(=O)[C@H](CC(=O)O)NC1=O)C(=O)N[C@@H](CCCNC(=N)N)C(=O)N[C@@H](Cc1ccc(O)c(I)c1)C(=O)N[C@@H](CCC(N)=O)C(=O)N[C@H](C(=O)N[C@H](CC(=O)N[C@@H](CCCNC(=N)N)C(=O)O)Cc1ccc(O)cc1)CSSC2(C)C	–	RP-HPLC	25% human serum	150 µM, 24 h, 37 °C	–	remaining ribbon isomer	6%
Cc1nn(-c2ccc(Cl)cc2)c2c1C(c1ccc(O)cc1)C(C#N)=C(N)O2 (stereo not shown)	Vero E6	MTT	–	25 µM	–	viability	55.9%
C[C@@H](O)[C@H](NC(=O)[C@H](CCCNC(=N)N)NC(=O)[C@H](CCCCN)NC(=O)[C@H](Cc1ccc(O)cc1)NC(=O)[C@@H](N)CCCNC(=N)N)C(=O)O	–	–	bovine cartilage explants	48 h, 4 °C, PBS 0.15 M	direction not given	net charge Z	2.87 elementary charge
CC(Oc1ccc(Cl)cc1Cl)C(=O)NCc1ccc2[nH]cnc2c1 (stereo not shown)	CHO	LDH release	–	without Pseudomonas aeruginosa	–	CC50	62 ± 7 µM
CC[C@H](C)[C@@H]1NC(=O)[C@H](CCC(=O)O)NC(=O)[C@@H]2CCCN2C(=O)[C@H](Cc2c[nH]cn2)NC(=O)[C@H](CCCNC(=N)N)NC(=O)[C@H](C(C)C)NC(=O)[C@H](CC(N)=O)NC(=O)[C@@H]2CSSC[C@H](NC(=O)CN)C(=O)N[C@@H](CSSC[C@@H](C(N)=O)NC1=O)C(=O)N[C@@H](CO)C(=O)N[C@@H](Cc1c[nH]cn1)C(=O)N1CCC[C@H]1C(=O)N[C@@H](C(C)C)C(=O)N2	Neuronal acetylcholine receptor subunit alpha-7 (Chrna7, Rattus norvegicus, UniProt Q05941)	ion current, antagonist, two-electrode voltage clamp	Xenopus oocytes	rat, added: ACh 300 µM	–	IC50	> 10 µM
N#Cc1c(-c2ccc(Cl)cc2Cl)n(-c2nc(-c3ccc(Cl)cc3)c3c(NC(=O)c4ccccc4)nnc-3[nH]2)[nH]c1=O	Malme-3M	SRB	–	–	–	CC50	> 100 µM
CC(C)CC(NC(=O)C(Cc1ccccc1)NC(=O)c1cnc(C(=O)NC(Cc2ccccc2)C(=O)NC(CC(C)C)B(O)O)cn1)B(O)O (stereo not shown)	proteasome (human)	chymotrypsin-like activity, inhibitor, Proteasome-Glo	MM1.S	24 h	–	IC50	0.0029 ± 0.00018 µM
CC(C)[C@H](NC(=O)CNC(=O)[C@H](COP(=O)(O)O)NC(=O)[C@@H](NC(=O)[C@H](CCC(=O)O)NC(=O)[C@H](CC(=O)O)NC(=O)CCNC(=O)Cc1cc(=O)oc2cc(N)ccc12)C(C)C)C(=O)N[C@@H](CCCCNc1ccc([N+](=O)[O-])cc1[N+](=O)[O-])C(=O)N[C@@H](CC(=O)O)C(N)=O	Caspase-3 (CASP3, Homo sapiens, UniProt P42574)	substrate	–	–	reference: caspase-3 kcat over caspase-7 kcat	kcat ratio	2 fold
CCOc1ccc(C2C(C#N)=C(N)Oc3c2c(C)nn3-c2ccc(Cl)cc2)cc1 (stereo not shown)	Vero E6	–	–	6.3 µM	–	viability	56.9%
O=C(Nc1cccc(C2=NCCN2)c1)c1ccc(-c2ccc(C(=O)Nc3cccc(C4=NCCN4)c3)cc2)cc1	HEK-293T	–	–	–	–	CC50	> 100 µM
CCOC(=O)c1c(-c2ccc(Cl)cc2Cl)n(-c2nc(-c3ccc(Cl)cc3)c3c(NC(=O)c4ccccc4)nnc-3[nH]2)[nH]c1=O	RPMI-8226	SRB	–	–	–	CC50	> 100 µM
Cc1nn(-c2ccc(Cl)cc2)c2c1C(c1ccc([N+](=O)[O-])cc1)C(C#N)=C(N)O2 (stereo not shown)	Vero E6	MTT	–	100 µM	–	viability	49.7%
COP(=O)(OC)Oc1ccc([N+](=O)[O-])cc1Cl	carboxylesterase (rat)	enzyme activity, inhibitor	rat, postnatal day 1, rat liver homogenate	added: p-nitrophenyl valerate	–	IC50	0.055 µM
CCCCCCCCC/C=C/C=O	Cytochrome P450 2A6 (CYP2A6, Homo sapiens, UniProt P11509)	competitive inhibitor	human liver S9	added: coumarin	–	Ki	128 ± 35 µM
COc1cc(C2C(C#N)=C(N)Oc3c2c(C)nn3-c2ccc(Cl)cc2)ccc1O (stereo not shown)	Vero E6	–	–	1.6 µM	–	viability	78%
Cc1ccc2[nH]cc(CNCC3(N4CCCC4)COC3)c2c1	A 172	–	–	30 µM, 48 h	reference: DMSO	viability	98.6%
CC(C)[C@H](NC(=O)CNC(=O)[C@H](CCC(=O)O)NC(=O)[C@@H](NC(=O)[C@H](CCC(=O)O)NC(=O)[C@H](CC(=O)O)NC(=O)CCNC(=O)Cc1cc(=O)oc2cc(N)ccc12)C(C)C)C(=O)N[C@@H](CCCCNc1ccc([N+](=O)[O-])cc1[N+](=O)[O-])C(=O)N[C@@H](CC(=O)O)C(N)=O	Caspase-7 (CASP7, Homo sapiens, UniProt P55210)	substrate	–	pH 7.2	–	Km	15.7 µM
CC(C)C[C@H](NC(=O)[C@H](Cc1ccccc1)NC(=O)CNC(=O)CNC(=O)[C@@H](N)Cc1ccc(O)cc1)C(=O)O	aminopeptidase III peak, rat	substrate	–	added: NAP-2	–	Km	82 µM
Fc1ccc2[nH]cc(CNCC3(N4CCCC4)COC3)c2c1	HEK	single-dose screen	–	30 µM, 48 h, off-target toxicity	reference: DMSO control	viability	100%

For quick reference, copied from above:
SMILES	target or system	assay	test system	setting	how to read	endpoint	result
CC(C)C[C@H](NC(=O)[C@H](Cc1ccccc1)NC(=O)CNC(=O)CNC(=O)[C@@H](N)Cc1ccc(O)cc1)C(=O)O	aminopeptidase III peak, rat	substrate	–	added: NAP-2	–	Km	82 µM
